Experimental data collected from several papers.
Each numbered part is a random draw from the data of one study; scales do not carry over between parts. Values joined by “and” are separate records of one study, mostly repeats; a detail may differ.
Chain of UniProt O96013 (whole entry, looked up): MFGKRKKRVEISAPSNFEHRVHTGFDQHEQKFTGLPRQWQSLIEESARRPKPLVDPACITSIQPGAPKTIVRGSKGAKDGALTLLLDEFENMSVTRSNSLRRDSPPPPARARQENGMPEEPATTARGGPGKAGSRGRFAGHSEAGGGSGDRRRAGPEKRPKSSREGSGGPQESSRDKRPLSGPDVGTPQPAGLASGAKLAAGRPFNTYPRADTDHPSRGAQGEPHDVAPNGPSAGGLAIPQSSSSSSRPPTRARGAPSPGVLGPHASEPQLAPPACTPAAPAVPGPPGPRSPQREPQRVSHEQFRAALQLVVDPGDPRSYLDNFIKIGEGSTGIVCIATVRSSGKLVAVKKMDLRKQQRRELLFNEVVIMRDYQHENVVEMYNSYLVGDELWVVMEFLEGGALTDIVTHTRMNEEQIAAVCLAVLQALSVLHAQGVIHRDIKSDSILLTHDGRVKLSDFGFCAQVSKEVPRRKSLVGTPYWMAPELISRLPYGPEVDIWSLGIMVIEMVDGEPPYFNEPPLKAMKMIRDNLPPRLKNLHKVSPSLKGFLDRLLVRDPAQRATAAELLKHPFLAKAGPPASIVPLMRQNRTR
Chain of UniProt O43353 (whole entry, looked up): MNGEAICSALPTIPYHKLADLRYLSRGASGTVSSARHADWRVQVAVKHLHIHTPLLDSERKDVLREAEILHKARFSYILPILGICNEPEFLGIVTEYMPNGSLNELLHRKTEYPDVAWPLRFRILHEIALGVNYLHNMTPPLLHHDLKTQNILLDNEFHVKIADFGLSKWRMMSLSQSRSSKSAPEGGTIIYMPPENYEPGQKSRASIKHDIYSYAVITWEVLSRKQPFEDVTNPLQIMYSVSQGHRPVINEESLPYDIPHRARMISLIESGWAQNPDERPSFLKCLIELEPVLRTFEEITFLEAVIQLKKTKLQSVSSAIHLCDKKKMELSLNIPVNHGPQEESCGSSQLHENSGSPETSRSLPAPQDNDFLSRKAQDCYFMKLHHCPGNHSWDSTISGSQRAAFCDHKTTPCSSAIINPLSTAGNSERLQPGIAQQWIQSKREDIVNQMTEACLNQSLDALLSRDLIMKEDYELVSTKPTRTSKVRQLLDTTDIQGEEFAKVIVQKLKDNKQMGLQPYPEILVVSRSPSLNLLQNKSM

Block 1 — read-out: thermal unfolding; technique: differential scanning fluorimetry; concentration: 5.5 µM; direction: higher = more unfolded
SMILES: C[C@@H]1CN(c2ccc(-c3cc(C(=O)NCCOCCOCCOCCOCCNC(=O)/C=C/c4[nH]cc(C(=O)N[C@@H](CC(N)=O)c5ccc(F)c(Cl)c5)c4-c4ccc(Cl)cc4F)ccc3F)cc2NC(=O)c2c[nH]c(=O)cc2C(F)(F)F)C[C@H](C)N1C
WDR5: WD repeat-containing protein 5 (WDR5, Homo sapiens, UniProt P61964)
DCAF1: DDB1- and CUL4-associated factor 1 (DCAF1, Homo sapiens, UniProt Q9Y4B6)
Chain of UniProt Q9Y4B6 (whole entry, looked up): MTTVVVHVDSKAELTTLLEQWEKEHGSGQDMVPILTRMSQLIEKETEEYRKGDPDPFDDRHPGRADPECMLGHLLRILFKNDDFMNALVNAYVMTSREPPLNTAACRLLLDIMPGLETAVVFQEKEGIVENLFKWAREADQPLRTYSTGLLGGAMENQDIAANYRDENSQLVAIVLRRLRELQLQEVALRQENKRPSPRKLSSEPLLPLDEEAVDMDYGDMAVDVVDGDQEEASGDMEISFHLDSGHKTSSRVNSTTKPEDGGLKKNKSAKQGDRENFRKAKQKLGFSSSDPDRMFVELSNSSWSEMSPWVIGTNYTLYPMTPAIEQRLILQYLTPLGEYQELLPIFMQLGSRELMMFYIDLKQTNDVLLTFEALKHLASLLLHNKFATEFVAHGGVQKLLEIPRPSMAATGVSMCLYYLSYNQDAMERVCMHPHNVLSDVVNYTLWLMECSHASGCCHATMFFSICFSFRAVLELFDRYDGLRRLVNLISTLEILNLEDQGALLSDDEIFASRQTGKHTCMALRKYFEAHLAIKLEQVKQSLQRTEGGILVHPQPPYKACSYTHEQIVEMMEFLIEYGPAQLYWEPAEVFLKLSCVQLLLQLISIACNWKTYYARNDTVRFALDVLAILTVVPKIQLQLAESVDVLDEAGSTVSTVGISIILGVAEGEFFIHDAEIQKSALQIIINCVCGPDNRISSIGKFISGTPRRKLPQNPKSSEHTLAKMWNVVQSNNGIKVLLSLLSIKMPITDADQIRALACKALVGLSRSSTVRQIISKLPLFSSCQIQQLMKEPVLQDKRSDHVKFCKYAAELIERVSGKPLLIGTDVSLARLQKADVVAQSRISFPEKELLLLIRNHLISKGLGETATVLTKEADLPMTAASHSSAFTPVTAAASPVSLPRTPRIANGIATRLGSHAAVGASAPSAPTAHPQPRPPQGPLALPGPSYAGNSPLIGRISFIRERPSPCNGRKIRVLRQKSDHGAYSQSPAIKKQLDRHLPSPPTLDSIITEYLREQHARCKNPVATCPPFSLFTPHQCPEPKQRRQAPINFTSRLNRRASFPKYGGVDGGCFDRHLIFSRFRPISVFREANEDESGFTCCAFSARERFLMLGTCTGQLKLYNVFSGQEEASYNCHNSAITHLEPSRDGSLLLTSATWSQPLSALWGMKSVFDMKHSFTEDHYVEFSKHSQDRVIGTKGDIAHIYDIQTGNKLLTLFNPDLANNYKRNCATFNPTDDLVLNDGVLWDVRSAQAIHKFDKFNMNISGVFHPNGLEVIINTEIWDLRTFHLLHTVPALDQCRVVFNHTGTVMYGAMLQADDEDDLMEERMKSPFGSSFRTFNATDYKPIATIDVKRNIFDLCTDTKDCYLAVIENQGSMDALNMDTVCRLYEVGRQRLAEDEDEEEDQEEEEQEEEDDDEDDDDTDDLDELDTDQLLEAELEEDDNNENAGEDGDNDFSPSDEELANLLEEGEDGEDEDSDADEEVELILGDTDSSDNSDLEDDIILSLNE
For WDR5; 74.01 °C: “SYPRO Orange fluorescence” read 23500 a.u.
WDR5; 38.4 °C — “SYPRO Orange fluorescence”: 14100 a.u.
The “SYPRO Orange fluorescence” was 56600 a.u. (DCAF1; 69.41 °C).
The “SYPRO Orange fluorescence” was 52600 a.u. (DCAF1; 72.61 °C).
WDR5; 56.61 °C — “SYPRO Orange fluorescence”: 16600 a.u.
DCAF1; 30.8 °C — “SYPRO Orange fluorescence”: 9610 a.u.
The “SYPRO Orange fluorescence” was 18500 a.u. (DCAF1; 53.41 °C).
It gave 16700 a.u. for “SYPRO Orange fluorescence” (WDR5; 70.41 °C).

Block 2 — concentration: 1 µM
SMILES: CC[C@@]1(c2cccc(C(F)(F)F)c2)C2=C(Nc3n[nH]cc31)[C@H](F)C(C)(C)CC2=O (single isomer, unassigned)
The remaining binding was 100% (MINK1 (Homo sapiens, UniProt Q8N4C8); kinase binding, KINOMEscan; relative to: DMSO control).
For Ribosomal protein S6 kinase alpha-2, C-terminal kinase domain (RPS6KA2, Homo sapiens, UniProt Q15349); binding, competition with immobilised ligand: remaining binding read 73%.
CDK4 (Homo sapiens, UniProt P11802); kinase binding, KINOMEscan; relative to: DMSO control — remaining binding: 79%.
The remaining binding was 99% (RET (Homo sapiens, UniProt P07949, M918T); binding, competition with immobilised ligand).
Tyrosine-protein kinase ABL1, non-phosphorylated (ABL1, Homo sapiens, UniProt P00519); kinase binding, KINOMEscan; relative to: DMSO control — remaining binding: 33%.
RIPK2 (Homo sapiens, UniProt O43353); binding, competition with immobilised ligand — remaining binding: 91%.
For STK24 (Homo sapiens, UniProt Q9Y6E0); binding, competition with immobilised ligand: remaining binding read 88%.
It gave 78% for remaining binding (RIPK4 (Homo sapiens, UniProt P57078); kinase binding, KINOMEscan; relative to: DMSO control).
PAK4 (Homo sapiens, UniProt O96013); binding, competition with immobilised ligand — remaining binding: 100%.
The remaining binding was 97% (EGFR (Homo sapiens, UniProt P00533); binding, competition with immobilised ligand).
DAPK1 (Homo sapiens, UniProt P53355); binding, competition with immobilised ligand — remaining binding: 77%.
MARK1 (Homo sapiens, UniProt Q9P0L2); binding, competition with immobilised ligand — remaining binding: 86%.
It gave 97% for remaining binding (TAOK3 (Homo sapiens, UniProt Q9H2K8); kinase binding, KINOMEscan; relative to: DMSO control).

Block 3
SMILES: COCCCCCCC1CC2C(CCC3(C)C(O)CCC23)c2ccc(O)cc21 (stereo not shown)
For SK-OV-3; microarray, item: ADAMTS8; 10 µM; relative to: untreated: “mRNA level ratio” read 0.635.
PANC-1; microarray, item: GADD45A; 50 µM; relative to: untreated — “mRNA level ratio”: 6.87.
The “mRNA level ratio” was 1 (SK-OV-3; DNA microarray, item: CCL11; 50 µM; relative to: untreated cells).
SK-OV-3; microarray, item: ACTA2; 50 µM; relative to: untreated — “mRNA level ratio”: 0.733.
It gave 1 for “mRNA level ratio” (SK-OV-3; DNA microarray, item: CCL11; 10 µM; relative to: untreated cells).
It gave 42.3 for “mRNA level ratio” (SK-OV-3; microarray, item: CCL8; 50 µM; relative to: untreated).
For A549; microarray, item: GADD45A; 10 µM; relative to: untreated: “mRNA level ratio” read 1.94.
A549; DNA microarray, item: CCL22; 10 µM; relative to: untreated cells — “mRNA level ratio”: 1.
It gave 0.89 for “mRNA level ratio” (A549; microarray, item: ADAMTS8; 10 µM; relative to: untreated).

Block 4 — read-out: enzyme activity; mode: inhibitor; technique: ADP detection
SMILES: CCN(CC)CC(=O)N1CCN(c2nc(NCc3nc4cc(Cl)c(Cl)cc4[nH]3)c3ncn(CC)c3n2)CC1
CDK13: Cyclin-dependent kinase 13 (CDK13, Homo sapiens, UniProt Q14004)
Chain of UniProt Q14004 (whole entry, looked up): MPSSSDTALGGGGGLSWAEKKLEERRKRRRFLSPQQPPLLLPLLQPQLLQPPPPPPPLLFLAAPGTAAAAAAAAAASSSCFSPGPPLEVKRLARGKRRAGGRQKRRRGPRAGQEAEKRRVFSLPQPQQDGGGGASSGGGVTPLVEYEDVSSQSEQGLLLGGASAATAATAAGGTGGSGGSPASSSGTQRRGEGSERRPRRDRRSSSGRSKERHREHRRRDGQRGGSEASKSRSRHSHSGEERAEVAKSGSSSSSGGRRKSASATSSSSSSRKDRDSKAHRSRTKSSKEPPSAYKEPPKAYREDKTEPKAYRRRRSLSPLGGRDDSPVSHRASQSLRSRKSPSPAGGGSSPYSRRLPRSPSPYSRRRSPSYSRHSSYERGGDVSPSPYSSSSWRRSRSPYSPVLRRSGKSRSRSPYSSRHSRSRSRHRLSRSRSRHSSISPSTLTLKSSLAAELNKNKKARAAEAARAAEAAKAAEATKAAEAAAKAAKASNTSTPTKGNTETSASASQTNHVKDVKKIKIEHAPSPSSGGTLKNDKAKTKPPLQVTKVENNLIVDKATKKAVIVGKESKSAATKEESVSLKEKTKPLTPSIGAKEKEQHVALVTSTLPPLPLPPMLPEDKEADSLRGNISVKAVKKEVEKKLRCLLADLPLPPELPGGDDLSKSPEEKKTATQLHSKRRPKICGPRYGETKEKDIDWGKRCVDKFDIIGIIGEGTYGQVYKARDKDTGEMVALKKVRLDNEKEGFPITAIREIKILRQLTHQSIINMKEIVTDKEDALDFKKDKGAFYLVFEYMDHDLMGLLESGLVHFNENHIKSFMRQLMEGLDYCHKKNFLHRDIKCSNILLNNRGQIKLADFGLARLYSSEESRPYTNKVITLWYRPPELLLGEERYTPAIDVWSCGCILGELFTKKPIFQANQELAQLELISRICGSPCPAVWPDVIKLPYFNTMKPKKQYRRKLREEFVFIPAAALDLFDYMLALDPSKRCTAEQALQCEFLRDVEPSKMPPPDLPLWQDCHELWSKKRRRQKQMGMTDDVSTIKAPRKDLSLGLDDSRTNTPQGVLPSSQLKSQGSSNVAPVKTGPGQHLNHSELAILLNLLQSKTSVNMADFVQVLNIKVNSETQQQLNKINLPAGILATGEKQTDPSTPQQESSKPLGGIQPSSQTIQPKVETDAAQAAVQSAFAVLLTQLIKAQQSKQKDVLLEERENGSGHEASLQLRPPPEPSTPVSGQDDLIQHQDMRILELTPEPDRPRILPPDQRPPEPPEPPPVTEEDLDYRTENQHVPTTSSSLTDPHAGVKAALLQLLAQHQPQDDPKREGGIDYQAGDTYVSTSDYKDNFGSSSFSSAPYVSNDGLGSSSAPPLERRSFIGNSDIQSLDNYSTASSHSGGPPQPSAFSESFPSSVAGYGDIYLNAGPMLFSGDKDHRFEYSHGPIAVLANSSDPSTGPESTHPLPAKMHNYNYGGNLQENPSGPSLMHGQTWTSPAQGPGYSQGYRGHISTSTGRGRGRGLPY
CDK9: Cyclin-dependent kinase 9 (CDK9, Homo sapiens, UniProt P50750)
Chain of UniProt P50750 (whole entry, looked up): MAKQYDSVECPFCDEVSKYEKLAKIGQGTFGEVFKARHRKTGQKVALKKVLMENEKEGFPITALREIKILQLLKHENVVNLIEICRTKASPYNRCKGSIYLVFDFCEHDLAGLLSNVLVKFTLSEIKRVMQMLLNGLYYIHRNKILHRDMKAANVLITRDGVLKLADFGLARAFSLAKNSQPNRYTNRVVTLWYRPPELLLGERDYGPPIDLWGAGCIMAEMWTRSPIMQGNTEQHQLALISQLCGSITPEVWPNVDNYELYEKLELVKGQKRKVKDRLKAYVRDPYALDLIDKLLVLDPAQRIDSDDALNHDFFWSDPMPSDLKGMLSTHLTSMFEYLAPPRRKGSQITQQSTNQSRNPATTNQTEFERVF
CDK2: Cyclin-dependent kinase 2 (CDK2, Homo sapiens, UniProt P24941)
For CDK13; 10 µM: inhibition read 87%.
CDK9; 1.5 nM — inhibition: -0.7%.
CDK9; 13.7 nM — inhibition: -3.6%.
CDK9; 0.3704 µM — inhibition: 11.7%.
The inhibition was 8.2% (CDK13; 41.2 nM).
The inhibition was 2.4% (CDK2; 1.5 nM).
CDK9; 4.6 nM — inhibition: 1.6%.
It gave 5.4% for inhibition (CDK2; 500 pM).

Block 5
Compound: CC(C)=CCN1C(=O)C(O)(C(=O)O)Oc2cc(F)ccc21 (stereo not shown)
For Alopecurus japonicus; fresh weight; 150 g ai/ha, pre-emergence treatment: inhibition read 65.1% and 65% and 62.8%.
The inhibition was 41% (Arabidopsis thaliana; root length; Col-0, seedlings; 100 µg/mL).
Setaria viridis; fresh weight; 150 g ai/ha, pre-emergence treatment — inhibition: 86.5% and 86.4% and 88.4%.
The inhibition was 12.6% (Arabidopsis thaliana; root length; Col-0, seedlings; 12.5 µg/mL; relative to: water control).
The inhibition was 30.9% (Arabidopsis thaliana; root length; Col-0; 50.0 µg/mL, 7 days, seed germination, dark).
Arabidopsis thaliana; root length; Col-0; 12.5 µg/mL, 7 days, seed germination, dark — inhibition: 12.6%.
For Triticum aestivum; fresh weight; soil surface spray, 150 g ai/ha, 21 days, pre-emergence crop safety: inhibition read 11.5% and 12% and 12.2%.
The inhibition was 10.7% (Arabidopsis thaliana; root length; Col-0, seedlings; 3.125 µg/mL; relative to: water control).
For Eclipta prostrata; fresh weight; 150 g ai/ha, post-emergence treatment: inhibition read 50.4% and 48.9%.
The inhibition was 13% (Arabidopsis thaliana; hypocotyl length; Col-0, seedlings; 50 µg/mL).
For Arabidopsis thaliana; hypocotyl length; Col-0; 50.0 µg/mL, 7 days, seed germination, dark: inhibition read 13%.
The inhibition was 17.9% (Arabidopsis thaliana; root length; Col-0; 25.0 µg/mL, 7 days, seed germination, dark).
Arabidopsis thaliana; root length; Col-0; 3.13 µg/mL, 7 days, seed germination, dark — inhibition: 10.7%.
Arabidopsis thaliana; hypocotyl length; Col-0, seedlings; 6.25 µg/mL — inhibition: 3.92%.

Block 6 — read-out: enzyme activity; mode: inhibitor; technique: Ub-TR-FRET; sample: HECT domain; concentration: 33.33 µM; direction: higher = more chain formation
Target: E3 ubiquitin-protein ligase NEDD4, HECT domain (Homo sapiens, UniProt P46934)
Target sequence (P46934 938-1319, limits assumed): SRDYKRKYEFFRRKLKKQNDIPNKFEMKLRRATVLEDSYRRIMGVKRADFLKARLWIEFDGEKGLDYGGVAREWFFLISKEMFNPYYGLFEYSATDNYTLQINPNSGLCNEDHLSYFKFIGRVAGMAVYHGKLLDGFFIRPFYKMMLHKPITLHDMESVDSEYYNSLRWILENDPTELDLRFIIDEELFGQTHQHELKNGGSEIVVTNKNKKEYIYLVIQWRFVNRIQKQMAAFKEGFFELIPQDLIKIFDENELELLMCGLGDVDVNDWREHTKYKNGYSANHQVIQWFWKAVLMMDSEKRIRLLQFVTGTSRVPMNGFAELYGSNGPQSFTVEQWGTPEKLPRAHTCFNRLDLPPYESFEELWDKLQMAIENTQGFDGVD
`CCOC(=O)/C=C/CNCCCCN1c2ccccc2COc2ccc(Cl)cc21.O=C(O)/C=C\C(=O)O`: “ubiquitin chain formation AUC” 10700 a.u. and 10300 a.u.
`C=CC(=O)NCCCN1c2ccccc2CCc2ccc(Cl)cc21` — result for “ubiquitin chain formation AUC”: 183000 a.u. and 184000 a.u.
`N#C/C=C/CNCCCCN1c2ccccc2CCc2ccc(Cl)cc21.O=C(O)/C=C\C(=O)O`: “ubiquitin chain formation AUC” 9260 a.u. and 9990 a.u. and 9480 a.u. and 10800 a.u. and 10400 a.u.
`Cl.NC(=O)/C=C/CNCCCN1c2ccccc2CCc2ccc(Cl)cc21` — result for “ubiquitin chain formation AUC”: 100000 a.u. and 97800 a.u. and 92900 a.u.
`CCOC(=O)/C=C/CNCCCCN1c2cc(Cl)ccc2COc2ccccc21.O=C(O)/C=C\C(=O)O` — result for “ubiquitin chain formation AUC”: 11900 a.u.

Further values, each from its own experiment
PKMYT1: Membrane-associated tyrosine- and threonine-specific cdc2-inhibitory kinase (PKMYT1, Homo sapiens, UniProt Q99640)
Chain of UniProt Q99640 (whole entry, looked up): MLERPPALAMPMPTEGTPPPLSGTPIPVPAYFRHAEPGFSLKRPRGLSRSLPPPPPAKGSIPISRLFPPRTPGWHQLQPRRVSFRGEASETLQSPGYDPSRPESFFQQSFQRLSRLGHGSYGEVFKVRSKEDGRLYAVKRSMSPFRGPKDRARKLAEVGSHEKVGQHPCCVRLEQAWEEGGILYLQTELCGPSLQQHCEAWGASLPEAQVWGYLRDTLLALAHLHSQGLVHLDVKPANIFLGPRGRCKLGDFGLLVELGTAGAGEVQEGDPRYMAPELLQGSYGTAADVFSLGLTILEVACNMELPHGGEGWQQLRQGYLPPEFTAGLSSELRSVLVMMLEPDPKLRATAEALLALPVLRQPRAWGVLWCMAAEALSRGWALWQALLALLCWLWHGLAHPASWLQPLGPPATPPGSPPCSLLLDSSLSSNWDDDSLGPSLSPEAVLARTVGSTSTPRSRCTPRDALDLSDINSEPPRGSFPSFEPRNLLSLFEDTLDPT
`Cc1ccc(O)c(C)c1-c1cnc2[nH]c(-c3cnc(N4CCC(CN5CCN(c6cc7c(cc6F)n(C6CCC(=O)NC6=O)c(=O)n7C)CC5)CC4)nc3)cc2c1C#N` (stereo not shown): “phospho-CDK1 (Thr14) level” 81.3 a.u. and 82 a.u. (HCC1569; CDK1 Thr14 phosphorylation, in-cell western; 333.33 nM; lower = stronger inhibition).
`Cc1ccc(O)c(C)c1-c1cnc2[nH]c(-c3cnc(N4CCC5(CC4)CC(N4CCN(c6ccc(NC7CCC(=O)NC7=O)cc6F)CC4)CO5)nc3)cc2c1C#N` (stereo not shown) gave a bioavailability of 53.4% (female CD-1 mouse, plasma; oral, 10 mg/kg).
`Cc1ccc(O)c(C)c1-c1cnc2[nH]c(-c3cnc(N4CCC5(CC4)CC(N4CCN(c6ccc7c(c6)C(=O)N(C6CCC(=O)NC6=O)C7=O)CC4)CO5)nc3)cc2c1C#N` (mixture of isomers) gave an inhibition of 99.2% and 99.7% (PKMYT1; binding, HTRF; 333.33 nM).
With `Cc1ccnc(C)c1-c1cnc2[nH]c(-c3ccc(N4CCN(C)CC4)nc3C)nc2c1` the inhibition was -14.8% and -6.06% (PKMYT1; binding, HTRF; 1111.11 nM).

For quick reference, copied from above (block 5):
The inhibition was 41% (Arabidopsis thaliana; root length; Col-0, seedlings; 100 µg/mL).
Setaria viridis; fresh weight; 150 g ai/ha, pre-emergence treatment — inhibition: 86.5% and 86.4% and 88.4%.
The inhibition was 12.6% (Arabidopsis thaliana; root length; Col-0, seedlings; 12.5 µg/mL; relative to: water control).
The inhibition was 30.9% (Arabidopsis thaliana; root length; Col-0; 50.0 µg/mL, 7 days, seed germination, dark).
Arabidopsis thaliana; root length; Col-0; 12.5 µg/mL, 7 days, seed germination, dark — inhibition: 12.6%.
